# Experimental data pooled from the literature.
# Each line is one published result; not all experiments were run side by side. Values joined by “and” are separate records of one study, mostly repeats; a detail may differ.
# Effect on: cell growth or viability
Compound,cell line,technique,tested at,time,viability
N[C@H]1C(O)O[C@H](CO)[C@@H](O)[C@@H]1O (some centres unmarked),Caco-2,CCK-8,100 µM,,100%
COc1cccc2c1C(=O)c1c(O)c3c(c(O)c1C2=O)C[C@@](O)(C(=O)CO)C[C@@H]3O[C@H]1C[C@H](N)[C@H](O)[C@H](C)O1,K562,MTT,12.5 µg/mL,,62.7%
CC(=O)c1nn(-c2ccc(C)cc2)/c(=N/N=C(\C)c2ccc(NC(=O)c3ccccc3)cc2)s1,WI-38,MTS,0.312 µM,24 h,11.8%
CC(C)C[C@H](NC(=O)[C@H](Cc1ccccc1)NC(=O)c1cnccn1)B(O)O,CHP-212,SRB,3.333 µM,,86.1% and 98.6% and 62.3%
O=C1CCCCC1=C1Sc2nc3ccc(S(=O)(=O)N4CCCC4)cc3nc2S1,WI-38,MTT,6.25 µM,24 h,99.7%
CNC(=O)c1cc(Oc2ccc(NC(=O)Nc3ccc(Cl)c(C(F)(F)F)c3)cc2)ccn1,WI-38,MTT,12.5 µM,24 h,40.3%
COc1cccc2c1C(=O)c1c(O)c3c(c(O)c1C2=O)C[C@@](O)(C(=O)CO)C[C@@H]3O[C@H]1C[C@H](N)[C@H](O)[C@H](C)O1,WI-38,MTT,1.56 µM,24 h,87.4%
COc1cc(N2CCC(N3CCN(C)CC3)CC2)ccc1Nc1ncc(Cl)c(Nc2ccccc2P(C)(C)=O)n1,Ba/F3 EML4-ALK,CCK-8,1 µM,30 min,88% and 80% and 83%
O=c1[nH]cc(F)c(=O)[nH]1,PC-9,CCK-8,20 µM,,49.7%
Nc1ccn([C@@H]2O[C@H](CO)[C@@H](O)C2(F)F)c(=O)n1,MDA-MB-231,MTT,1.25 µg/mL,48 h,68.1%
CCOC(=O)C(C(C)=O)=C1Sc2nc3ccc(S(=O)(=O)N4CCCC4)cc3nc2S1,WI-38,MTT,6.25 µM,24 h,94.5%
COc1cccc(NC(=O)Nc2ccc(Oc3nc4ccccc4n4cnnc34)cc2)c1,WI-38,MTT,3.125 µM,24 h,100%
N#CC(C(=O)Nc1cccc(C(F)(F)F)c1)=C1Sc2nc3ccc(S(=O)(=O)N4CCCC4)cc3nc2S1,WI-38,MTT,1.56 µM,24 h,100%
Cn1cnc2c1c(=O)n(CC(=O)Nc1c(Cl)cccc1Cl)c(=O)n2C,NCI-H1975,MTT,1.6 µg,,69.5%

# A few entries again:
Compound,cell line,technique,tested at,time,viability
COc1cccc(NC(=O)Nc2ccc(Oc3nc4ccccc4n4cnnc34)cc2)c1,WI-38,MTT,3.125 µM,24 h,100%
N#CC(C(=O)Nc1cccc(C(F)(F)F)c1)=C1Sc2nc3ccc(S(=O)(=O)N4CCCC4)cc3nc2S1,WI-38,MTT,1.56 µM,24 h,100%
